Published values pooled from the literature.
Every numbered part comes from another study and shows a few of its results, in no order.
UniProt Q92772, sequence (whole entry, looked up): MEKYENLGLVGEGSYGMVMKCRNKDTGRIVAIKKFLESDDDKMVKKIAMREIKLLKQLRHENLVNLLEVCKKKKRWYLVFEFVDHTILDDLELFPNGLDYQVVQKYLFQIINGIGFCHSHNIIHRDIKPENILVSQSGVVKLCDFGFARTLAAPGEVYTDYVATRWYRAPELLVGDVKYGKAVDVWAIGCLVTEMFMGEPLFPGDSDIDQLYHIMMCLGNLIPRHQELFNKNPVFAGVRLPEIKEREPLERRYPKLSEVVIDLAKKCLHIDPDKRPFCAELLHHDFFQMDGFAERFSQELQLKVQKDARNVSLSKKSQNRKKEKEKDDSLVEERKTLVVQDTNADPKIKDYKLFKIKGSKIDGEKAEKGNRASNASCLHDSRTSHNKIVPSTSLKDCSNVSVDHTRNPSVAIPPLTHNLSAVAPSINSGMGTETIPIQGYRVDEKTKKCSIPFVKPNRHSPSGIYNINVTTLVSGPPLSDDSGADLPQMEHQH
UniProt Q9XFM0, sequence (whole entry, looked up): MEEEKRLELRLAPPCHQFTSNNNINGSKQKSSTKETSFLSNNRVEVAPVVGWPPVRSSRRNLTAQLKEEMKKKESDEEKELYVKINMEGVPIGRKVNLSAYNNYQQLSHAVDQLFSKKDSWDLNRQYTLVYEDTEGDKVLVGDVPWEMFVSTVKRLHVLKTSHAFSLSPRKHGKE
UniProt O00238, sequence (whole entry, looked up): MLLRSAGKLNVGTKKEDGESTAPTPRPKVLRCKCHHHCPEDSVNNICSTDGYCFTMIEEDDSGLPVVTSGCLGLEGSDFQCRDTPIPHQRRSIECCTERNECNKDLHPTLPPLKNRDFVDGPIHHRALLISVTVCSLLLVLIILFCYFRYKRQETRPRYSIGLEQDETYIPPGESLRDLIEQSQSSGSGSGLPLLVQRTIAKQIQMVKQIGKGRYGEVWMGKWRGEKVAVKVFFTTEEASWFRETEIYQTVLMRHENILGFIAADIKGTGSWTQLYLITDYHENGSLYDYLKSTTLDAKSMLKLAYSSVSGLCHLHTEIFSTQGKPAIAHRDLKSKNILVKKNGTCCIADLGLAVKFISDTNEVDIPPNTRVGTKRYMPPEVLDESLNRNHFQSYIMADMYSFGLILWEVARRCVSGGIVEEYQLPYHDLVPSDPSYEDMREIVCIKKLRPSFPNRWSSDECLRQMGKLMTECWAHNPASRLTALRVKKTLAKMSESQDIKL
UniProt Q9UIK4, sequence (whole entry, looked up): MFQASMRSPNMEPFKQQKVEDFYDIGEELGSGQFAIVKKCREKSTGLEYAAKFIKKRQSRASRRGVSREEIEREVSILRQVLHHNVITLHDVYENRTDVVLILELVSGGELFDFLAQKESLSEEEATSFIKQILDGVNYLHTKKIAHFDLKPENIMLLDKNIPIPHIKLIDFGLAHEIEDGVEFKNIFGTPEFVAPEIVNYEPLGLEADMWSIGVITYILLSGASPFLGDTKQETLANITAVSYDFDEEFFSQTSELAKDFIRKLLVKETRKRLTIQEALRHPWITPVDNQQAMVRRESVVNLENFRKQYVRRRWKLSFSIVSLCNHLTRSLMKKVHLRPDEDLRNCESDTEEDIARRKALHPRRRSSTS
UniProt Q9C8N7, sequence (whole entry, looked up): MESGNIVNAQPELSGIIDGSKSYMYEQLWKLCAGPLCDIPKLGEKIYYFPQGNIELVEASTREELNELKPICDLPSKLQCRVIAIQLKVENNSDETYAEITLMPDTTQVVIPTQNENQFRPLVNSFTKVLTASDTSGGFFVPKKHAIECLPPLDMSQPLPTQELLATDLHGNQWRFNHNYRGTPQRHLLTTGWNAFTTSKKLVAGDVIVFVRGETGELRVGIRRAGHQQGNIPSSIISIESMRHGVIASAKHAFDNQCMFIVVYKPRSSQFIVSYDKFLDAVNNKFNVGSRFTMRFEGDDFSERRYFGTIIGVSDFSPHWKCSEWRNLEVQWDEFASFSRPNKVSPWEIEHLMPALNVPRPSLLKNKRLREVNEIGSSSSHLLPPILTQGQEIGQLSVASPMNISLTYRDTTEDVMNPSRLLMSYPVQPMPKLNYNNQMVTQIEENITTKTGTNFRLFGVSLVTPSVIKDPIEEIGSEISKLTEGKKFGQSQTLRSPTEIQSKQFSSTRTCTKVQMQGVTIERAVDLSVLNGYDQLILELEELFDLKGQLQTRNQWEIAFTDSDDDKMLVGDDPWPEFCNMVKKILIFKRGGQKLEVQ
UniProt Q86UE8, sequence (whole entry, looked up): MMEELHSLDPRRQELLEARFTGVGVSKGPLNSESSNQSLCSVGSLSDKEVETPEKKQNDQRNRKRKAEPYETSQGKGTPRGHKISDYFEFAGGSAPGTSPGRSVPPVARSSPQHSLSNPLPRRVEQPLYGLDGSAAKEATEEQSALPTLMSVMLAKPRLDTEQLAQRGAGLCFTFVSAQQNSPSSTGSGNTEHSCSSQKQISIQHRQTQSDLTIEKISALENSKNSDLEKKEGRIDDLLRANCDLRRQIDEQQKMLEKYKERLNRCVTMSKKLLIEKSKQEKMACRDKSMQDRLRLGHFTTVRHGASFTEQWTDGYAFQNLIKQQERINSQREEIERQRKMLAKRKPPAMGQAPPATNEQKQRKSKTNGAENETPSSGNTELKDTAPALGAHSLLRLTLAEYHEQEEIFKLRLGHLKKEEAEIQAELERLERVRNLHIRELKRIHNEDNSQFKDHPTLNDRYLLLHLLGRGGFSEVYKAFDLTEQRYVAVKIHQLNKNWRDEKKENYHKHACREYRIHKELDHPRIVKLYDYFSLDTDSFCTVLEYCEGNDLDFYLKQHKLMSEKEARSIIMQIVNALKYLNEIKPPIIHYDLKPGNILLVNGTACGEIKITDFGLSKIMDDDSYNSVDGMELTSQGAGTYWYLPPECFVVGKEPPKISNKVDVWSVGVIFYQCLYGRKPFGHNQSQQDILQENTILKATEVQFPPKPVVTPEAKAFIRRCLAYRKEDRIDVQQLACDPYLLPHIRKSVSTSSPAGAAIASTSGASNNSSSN
UniProt Q9XID4, sequence (whole entry, looked up): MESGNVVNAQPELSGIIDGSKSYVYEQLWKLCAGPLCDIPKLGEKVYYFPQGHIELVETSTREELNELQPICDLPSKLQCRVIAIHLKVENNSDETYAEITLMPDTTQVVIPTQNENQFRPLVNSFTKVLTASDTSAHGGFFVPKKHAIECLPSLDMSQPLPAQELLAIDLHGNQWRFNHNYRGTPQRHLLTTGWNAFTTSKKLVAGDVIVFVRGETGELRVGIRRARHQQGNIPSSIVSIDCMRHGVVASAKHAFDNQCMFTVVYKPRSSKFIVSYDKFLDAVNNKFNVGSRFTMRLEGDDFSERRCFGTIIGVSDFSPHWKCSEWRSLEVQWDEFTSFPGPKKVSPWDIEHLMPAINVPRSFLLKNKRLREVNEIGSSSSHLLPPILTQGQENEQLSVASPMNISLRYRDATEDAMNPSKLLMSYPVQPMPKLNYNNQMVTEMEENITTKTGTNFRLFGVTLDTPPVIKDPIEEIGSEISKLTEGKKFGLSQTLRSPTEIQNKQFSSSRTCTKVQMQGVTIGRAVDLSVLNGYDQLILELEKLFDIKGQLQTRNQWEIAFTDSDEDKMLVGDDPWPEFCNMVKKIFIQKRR
UniProt Q9LQE8, sequence (whole entry, looked up): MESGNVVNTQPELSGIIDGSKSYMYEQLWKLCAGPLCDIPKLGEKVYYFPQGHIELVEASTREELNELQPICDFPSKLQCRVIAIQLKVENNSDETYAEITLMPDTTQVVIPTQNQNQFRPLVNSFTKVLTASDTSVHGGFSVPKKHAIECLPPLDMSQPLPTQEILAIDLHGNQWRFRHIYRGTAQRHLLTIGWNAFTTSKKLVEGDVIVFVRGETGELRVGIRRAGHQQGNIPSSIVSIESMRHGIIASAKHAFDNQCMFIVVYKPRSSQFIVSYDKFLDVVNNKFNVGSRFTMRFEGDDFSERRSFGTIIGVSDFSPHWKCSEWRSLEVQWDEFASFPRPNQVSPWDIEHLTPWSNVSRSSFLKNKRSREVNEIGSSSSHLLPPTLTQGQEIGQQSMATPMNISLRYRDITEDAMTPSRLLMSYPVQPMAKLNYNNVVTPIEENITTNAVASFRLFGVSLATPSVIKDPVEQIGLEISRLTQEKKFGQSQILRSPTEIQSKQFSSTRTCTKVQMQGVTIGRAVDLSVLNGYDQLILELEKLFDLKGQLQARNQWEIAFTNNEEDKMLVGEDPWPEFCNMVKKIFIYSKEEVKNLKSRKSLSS
UniProt Q93WC4, sequence (whole entry, looked up): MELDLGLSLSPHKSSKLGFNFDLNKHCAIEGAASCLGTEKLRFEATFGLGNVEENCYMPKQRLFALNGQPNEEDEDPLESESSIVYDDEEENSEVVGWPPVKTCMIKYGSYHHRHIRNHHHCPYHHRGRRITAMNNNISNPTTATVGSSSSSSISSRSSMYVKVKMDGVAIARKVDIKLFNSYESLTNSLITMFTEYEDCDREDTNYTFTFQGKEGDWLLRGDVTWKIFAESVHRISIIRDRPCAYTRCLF
UniProt P48729, sequence (whole entry, looked up): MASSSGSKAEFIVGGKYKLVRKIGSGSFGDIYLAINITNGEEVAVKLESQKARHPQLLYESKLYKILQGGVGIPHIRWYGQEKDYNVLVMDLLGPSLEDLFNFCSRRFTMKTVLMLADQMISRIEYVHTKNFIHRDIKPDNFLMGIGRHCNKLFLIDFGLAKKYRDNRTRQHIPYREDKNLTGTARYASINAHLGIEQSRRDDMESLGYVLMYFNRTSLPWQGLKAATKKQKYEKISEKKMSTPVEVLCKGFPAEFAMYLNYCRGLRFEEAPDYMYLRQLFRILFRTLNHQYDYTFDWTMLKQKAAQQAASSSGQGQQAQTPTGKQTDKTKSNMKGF

Block 1 — read-out: cell-free assay; technique: competition with immobilised ligand; concentration: 0.1 µM
Compound: Cn1nc(C(=O)NCc2ccc(C(=O)O)cc2)cc1-c1ccc2[nH]ccc2c1
target	remaining binding [%]
BMPR1B (Homo sapiens, UniProt O00238)	88
LIM domain kinase 1 (LIMK1, Homo sapiens, UniProt P53667)	100
TLK2 (Homo sapiens, UniProt Q86UE8)	89
DAPK2 (Homo sapiens, UniProt Q9UIK4)	96
CDKL2 (Homo sapiens, UniProt Q92772)	78
PLK4 (Homo sapiens, UniProt O00444)	61
Tyrosine-protein kinase ABL1, phosphorylated (ABL1, Homo sapiens, UniProt P00519, Y253F)	100
CSNK1A1 (Homo sapiens, UniProt P48729)	81
RIPK1 (Homo sapiens, UniProt Q13546)	100

Block 2 — Sequence: B1 (IAA2); technique: two-hybrid; relative to: out of 4 tests; direction: higher = firmer interaction
B1: IAA2 (Arabidopsis thaliana, UniProt P49678); chain MAYEKVNELNLKDTELCLGLPGRTEKIKEEQEVSCVKSNNKRLFEETRDEEESTPPTKTQIVGWPPVRSSRKNNNSVSYVKVSMDGAPYLRKIDLKTYKNYPELLKALENMFKVMIGEYCEREGYKGSGFVPTYEDKDGDWMLVGDVPWDMFSSSCKRLRIMKGSDAPALDSSL
partner	positive tests
IAA7 (Arabidopsis thaliana, UniProt Q38825)	1
IAA29 (Arabidopsis thaliana, UniProt Q93WC4)	0
ARF14 497-605 (Arabidopsis thaliana, UniProt Q9LQE8)	0
ARF22 498-598 (Arabidopsis thaliana, UniProt Q9C8N7)	0
IAA28 (Arabidopsis thaliana, UniProt Q9XFM0)	4
IAA17 (Arabidopsis thaliana, UniProt P93830)	4
ARF12 500-593 (Arabidopsis thaliana, UniProt Q9XID4)	0
ARF10 575-693 (Arabidopsis thaliana, UniProt Q9SKN5)	0

Block 3 — technique: aptamer microarray, sandwich; molecule type: DNA with 2'F-ANA; matrix: in vitro; concentration: 200 nM; added: Cy3 exosite-II aptamer, 400 nM; direction: higher = stronger binding; oligonucleotide: GGTTGGTGTGGTTGG
Target: Prothrombin, mature alpha-thrombin (F2, Homo sapiens, UniProt P00734)
Setting: whole 15-mer aptamer, many near background
Modification	mean fluorescence intensity [a.u.]
2'F-ANA at 1 2 3 4 5 7 8 11 14 15	48
2'F-ANA at 1 2 3 7 8 11 13	218
2'F-ANA at 2 3 5 6 8 11 14 15	51.1
2'F-ANA at 2 4 9 11 12 13 15	317
2'F-ANA at 1 6 7 8 9 10 12 15	69.1
2'F-ANA at 1 2 8 11 13 15	143
2'F-ANA at 2 5 9 12 13	131
2'F-ANA at 1 3 4 6 7 8 9 10 15	67.3

Block 4 — read-out: enzyme activity; action: inhibitor; concentration: 0.5 µM; relative to: control
Target: Hepatocyte growth factor receptor (MET, Homo sapiens, UniProt P08581)
SMILES	remaining activity [%]
CNC(=O)c1cc(Oc2ccc(NC(=O)Nc3ccc(Cl)c(C(F)(F)F)c3)cc2)ccn1	105
COc1ccc(CNC(=O)Nc2ncc([N+](=O)[O-])s2)cc1	85.5
C#Cc1cccc(Nc2ncnc3cc(OCCOC)c(OCCOC)cc23)c1	71.4
O=C(Nc1cccc(Nc2cc(Nc3cccc(C(F)(F)F)c3)ncn2)c1)C1CC1	103
CO[C@H]1C[C@@H]2CC[C@@H](C)[C@@](O)(O2)C(=O)C(=O)N2CCCC[C@H]2C(=O)O[C@H]([C@H](C)C[C@@H]2CC[C@@H](O)[C@H](OC)C2)CC(=O)[C@H](C)/C=C(\C)[C@@H](O)[C@@H](OC)C(=O)[C@H](C)C[C@H](C)/C=C/C=C/C=C/1C	98.1
COc1ccc(C(=O)Nc2sc3c(c2C(N)=O)CCCC3)cc1OC	82.8
Cc1ccc(NC(=O)c2ccc(CN3CCN(C)CC3)cc2)cc1Nc1nc(-c2cccnc2)cs1	104
CCOC(=O)c1c(C)[nH]c(/C=C2\C(=O)Nc3ccccc32)c1C	87.4
O=c1c2ccccc2[nH]c(=S)n1CCN1CCC(=C(c2ccc(F)cc2)c2ccc(F)cc2)CC1	114
OCC(O)CCON=C1C(c2c(O)[nH]c3ccccc23)=Nc2ccccc21 (stereo not drawn)	123
Cn1c2ccccc2c2c3c(c4c5ccccc5n(CCC#N)c4c21)CNC3=O	100

For quick reference, copied from above (block 1):
target	remaining binding [%]
BMPR1B (Homo sapiens, UniProt O00238)	88
LIM domain kinase 1 (LIMK1, Homo sapiens, UniProt P53667)	100
TLK2 (Homo sapiens, UniProt Q86UE8)	89
DAPK2 (Homo sapiens, UniProt Q9UIK4)	96
